# Published values collected from several papers.
# Each numbered part is a random draw from the data of one study; scales do not carry over between parts. Positions count from the first letter of the parent shown.

# Block 1
# Target: CCNB3, cyclin fold, Cln2 fusion (human)
# Technique: yeast growth competition, sequencing
# Matrix: yeast
# Setting: strong parent motif
# Baseline: not given
# Direction: higher = stronger binding
# Starting sequence: RBL2 docking peptide (human); STTRRRLFVENDS; partner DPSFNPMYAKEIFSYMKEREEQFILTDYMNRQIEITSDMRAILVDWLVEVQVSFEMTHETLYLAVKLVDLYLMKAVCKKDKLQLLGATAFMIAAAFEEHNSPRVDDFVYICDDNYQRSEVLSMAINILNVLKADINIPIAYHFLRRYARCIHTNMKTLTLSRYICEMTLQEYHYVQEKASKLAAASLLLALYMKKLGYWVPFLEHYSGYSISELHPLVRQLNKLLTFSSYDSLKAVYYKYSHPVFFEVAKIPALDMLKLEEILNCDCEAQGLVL
Variant,normalised enrichment score
S1P,0.768
R5C,0.432
D12V,0.675
R5Q,0.587
L7R,0.227
E10L,0.0517
T2Q,0.737
T2V,0.648
F8L,0.148
L7Q,-0.0693
E10G,0.4
S1I,0.529
T3F,0.26
N11R,0.49
L7T,-0.205
D12F,0.729
R4K,0.569
E10W,-0.0583
T2R,1.14
E10A,0.455
S1H,1.26
N11K,0.877
L7D,0.255

# Block 2
# Target: Ras GTPase-activating protein-binding protein 1, full length (G3BP1, Homo sapiens, UniProt Q13283)
# Sequence of UniProt Q13283 (whole entry, looked up): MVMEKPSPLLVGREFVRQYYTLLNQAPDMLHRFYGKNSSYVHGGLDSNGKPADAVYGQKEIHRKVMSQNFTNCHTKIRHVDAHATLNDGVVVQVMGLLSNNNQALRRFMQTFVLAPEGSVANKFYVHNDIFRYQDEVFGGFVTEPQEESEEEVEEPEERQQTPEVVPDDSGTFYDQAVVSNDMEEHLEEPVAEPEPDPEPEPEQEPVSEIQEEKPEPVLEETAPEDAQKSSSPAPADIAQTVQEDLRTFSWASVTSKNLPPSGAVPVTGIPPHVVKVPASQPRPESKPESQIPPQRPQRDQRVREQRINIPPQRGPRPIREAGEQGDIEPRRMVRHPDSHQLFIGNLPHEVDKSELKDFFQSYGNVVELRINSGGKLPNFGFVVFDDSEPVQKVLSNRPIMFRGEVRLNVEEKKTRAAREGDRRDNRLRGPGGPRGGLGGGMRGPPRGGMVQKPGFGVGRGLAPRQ
# Technique: RNA Bind-n-Seq
# Molecule type: RNA
# Matrix: in vitro
# Concentration: 200 nM
# Setting: whole 134-nt RNA, ends assumed
# Added: 150 mM LiCl
# Baseline: input library
# Direction: higher = stronger binding
# Library: 7-deaza-guanosine replaces G
# All sequences stand within: GGGAGUUCUACAGUCCGACGAUC … UGGAAUUCUCGGGUGUCAAGG
Sequence,log2 enrichment
UGCCAAAGUAUGGCAAGAAAUUGCUCCUGGAAAUACUGAUGCCACCCCAGUAACUCAUGGAACUGAAAGCUCUUGGCAUGAAAUAGCAGC,1.02
CAAGUCCUGUGCUACACAUCGUAUGUACCGAAUCGGAAAGGUUUUUGGUUUUUGGAAAGUAUUAUGUUACGCCGUUCGGAUCUGCACUUC,-1.51
GUCCUGUGCUACACAUCGUAUGUACCGAAUCGGCCCCCCGGCCCCCCGGGGCCCCCCGGAAAGUAUUAUGUUACGCCGUUCGGAUCUGCA,-0.677
UCAAGUCCUGUGCUACACAUCGUAUGUACCGAAUCGGAAAAAGGAGGUUUUUGGAAAGUAUUAUGUUACGCCGUUCGGAUCUGCACUUCC,-0.261
UGGGAGGUGGAUUUUGUUUAUUUUUUUAGCUCAUUUCCAGGGGUGGGAAUAUUUUUUUAAUAUGUGUCAUGAAUAAAGUUGUUUUUGAAA,-0.147
AGUCCUGUGCUACACAUCGUAUGUACCGAAUCGGGGUGGGGAAAAAAAGGGGAGGGGAAAGUAUUAUGUUACGCCGUUCGGAUCUGCACU,0.151
UGGGAGGUGGAUCUUGUUUAUUUUUUUAGCUCAUUUCCAGGGGUGGGAAUUUUUUUUUAAUAUGUGUCAUGAAUAAAGUUGUUUUUGAAA,0.293
UUGUGGAAAACCCACAUGCUCCUCAGAAAGAUGAUGCCCUGGUGAUCACACACUACAACCGGACCCGACAGCAGGAAGAGAUGCUGGGGC,-0.866
CACAGACAACACGCACCCACACAGACACAGAGGGAAGGGGUUGGGAUGGGGACAGGGUGCACAGCAGGGCGGGGUAGGUCCCCAGCCCCU,1.27
GUCCUGUGCUACACAUCGUAUGUACCGAAUCGGUUUUUUGGGGUUUUUUGGUUUUUUGGAAAGUAUUAUGUUACGCCGUUCGGAUCUGCA,-0.987
CUGUGCUACACAUCGUAUGUACCGAAUCGGGAAAAAAAGGGGAAAAAAAGGAAAAAAAGGGGAAAGUAUUAUGUUACGCCGUUCGGAUCU,0.223

# Block 3
# Target: UBE2C UBC core domain (UniProt O00762)
# Technique: yeast two-hybrid
# Matrix: yeast
# Setting: mostly zero background
# Baseline: not given
# Direction: higher = stronger interaction
# B1: RC3H1 RING domain (UniProt Q5TC82); chain QAPQWTDFLSCPICTQTFDETIRKPISLGCGHTVCKMCLNKLHRKACPFDQTTINTDIELL
# B2: TRIML1 RING domain (UniProt Q8N9V2); chain LMENLREELTCFICLDYFSSPVTTECGHSFCLVCLLRSWEEHNTPLSCPECWRTLEGPHFQS
# B3: TRIM24 RING domain (UniProt O15164); chain EAARLNLLDTCAVCHQNIQSRAPKLLPCLHSFCQRCLPAPQRYLMLPAPMLGSAETPPPVPAPGSPVSGSSPFATQVGVIRCPVCSQECAERHII
# B4: RNF38 RING domain (UniProt Q9H0F5); chain PNNHQSEQTLCVVCMCDFESRQLLRVLPCNHEFHAKCVDKWLKANRTCPICRADASEVHRDS
# B5: MKRN1 RING domain (UniProt Q9UHC7); chain FAVQRSKDMVCGICMEVVYEKANPSERRFGILSNCNHTYCLKCIRKWRSAKQFESKIIKSCPECRITSNFVIPSE
# B6: DTX4 RING domain (UniProt Q9Y2E6); chain QKVRHPPDEDCTICMERLTAPSGYKGPQPTVKPDLVGKLSRCGHVYHIYCLVAMYNNGNKDGSLQCPTCKTIYGVKTGTQ
# B7: RNF111 RING domain (UniProt Q6ZNA4); chain EGTEEDTEEKCTICLSILEEGEDVRRLPCMHLFHQVCVDQWLITNKKCPICRVDIEAQLPSE
# B8: TRAF5 RING domain (UniProt O00463); chain FVERLEERYKCAFCHSVLHNPHQTGCGHRFCQHCILSLRELNTVPICPVDKEVIKSQEVFK
# Target sequence (chain): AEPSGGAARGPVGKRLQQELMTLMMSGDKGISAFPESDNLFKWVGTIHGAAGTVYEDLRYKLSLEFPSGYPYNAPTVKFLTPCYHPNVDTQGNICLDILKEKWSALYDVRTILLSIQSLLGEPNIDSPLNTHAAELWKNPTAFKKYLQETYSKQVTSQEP
Sequence,lacZ reporter activity
B1 (RC3H1 RING domain),0
B2 (TRIML1 RING domain),0
B3 (TRIM24 RING domain),0
DHGAVGQEMCCPICCSEYVKGEVATELPCHHYFHKPCVSIWLQKSGTCPVCRCMFPPPL (PJA1 RING domain (UniProt Q8NG27)),0
B4 (RNF38 RING domain),0
ASLPTSEEDLCPICYAHPISAVFQPCGHKSCKACINQHLMNNKDCFFCKTTIVSVEDWE (RNF123 RING domain (UniProt Q5XPI4)),0
B5 (MKRN1 RING domain),0
B6 (DTX4 RING domain),0
GAAPGPEAAECLVCSELALLVLFSPCQHRTVCEECARRMKKCIRCQVVVSKKLRPD (MIB2 RING domain (UniProt Q96AX9)),0
MPIRALCTICSDFFDHSRDVAAIHCGHTFHLQCLIQWFETAPSRTCPQCRIQVGKRTIIN (TRAIP RING domain (UniProt Q9BWF2)),0
B7 (RNF111 RING domain),0
B8 (TRAF5 RING domain),0

# Block 4
# Target: Histone acetyltransferase KAT6A, winged helix 1, GST fusion (KAT6A, Homo sapiens, UniProt Q92794, residues 1-85)
# Technique: protein binding microarray
# Molecule type: double-stranded DNA, one strand shown
# Matrix: in vitro
# Concentration: not given
# Setting: 8-mer, flanks averaged, mean of 2 arrays, mostly near background
# Baseline: not given
# Direction: higher = stronger binding
# Residues (chain): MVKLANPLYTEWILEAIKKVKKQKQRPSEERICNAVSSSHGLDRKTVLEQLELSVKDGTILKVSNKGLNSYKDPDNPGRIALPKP
Sequence,E-score
GGAAGATA,-0.072
GACTTAGC,-0.00722
GCGGCACA,0.261
CCGGAACA,-0.012
AGTGCCAT,-0.191
CTGCTGCA,-0.109
CAATATGG,-0.186
GTGCATCA,0.00532
ATTCGTAA,-0.183
AAAAATGA,-0.211
ACTCCTTG,-0.0699
CTCGATTA,-0.156
CTCGCCGC,0.385
CTCCGGGC,0.0284
ATTGCATG,-0.202
GACTCGGA,0.0927
CATCAGCA,-0.165
CTCTCTTA,-0.128

# Block 5
# Target: Interferon regulatory factor 5, full length, phosphomimetic (IRF5, Homo sapiens, UniProt Q13568-2, residues 1-514, K96S/S451D/S453D/S456D/S462D)
# Technique: protein-binding microarray
# Molecule type: double-stranded DNA, one strand shown
# Matrix: in vitro
# Concentration: 250 nM
# Setting: 60-bp whole probe
# Added: salmon DNA 0.4 mg/ml
# Baseline: random background probes
# Direction: higher = stronger binding
# All sequences stand within: GCCTAGCAC … GTCTTGATTCGCTTGACGCTGCTG
Sequence,log fluorescence [z-score]
TTAGGTCTCCTCTTCCTTTAGTGCTAG,-0.14
GGCGGACTGGGGTTTCGGGACGTGCTA,0.811
TTAGGACTGGACACTGGGTAAGTGCTA,-0.335
GACGGTTTCCTTATCCTGACGTGCTAG,0.83
TCACATTGCCTGTTTTTCACTGTGCTA,1.17
TCATGTTTGGCCCTGAAACTGTGCTAG,-0.054
GCCGGTTTCGACTTTCGGGACGTGCTA,8.68
GACGGTATGGGTATCGGGACGTGCTAG,0.587
TTAGGTTCCCGTTTCGGTTAGTGCTAG,7.85
GACGGTATCGGACAGGGGACGTGCTAG,0.835
TCATATGTCTGTTTTTGACTGTGCTAG,0.494
GACGATTTCGGTTTCGGGACGTGCTAG,9.16
GACGGTATCCTTATCCTCACGTGCTAG,0.184
GACGGTTTCGGATTTCGGGACGTGCTA,5.94
TCAGTCTTCACTCTGCTACTGTGCTAG,0.417
GACGATTTCAGTCTCGAGCCGTGCTAG,1.23
TCACCTTTCTCTCTGTGACTGTGCTAG,1.4
GACGGTTTCGATCTCGGGACGTGCTAG,7.97
GACGGACTGCTTTACCTGACGTGCTAG,-0.256
TCATACATGCATATAGTACTGTGCTAG,0.384
TCATCATTATTGTCTCCCACTGTGCTA,0.837
GACGATCTCAGTAGCGAGACGTGCTAG,0.0302
GACGGTTTCGGTTGCGGGACGTGCTAG,9.59
TCAGGTCTCGGTCTCGGTTAGTGCTAG,0.742

# Block 6
# Target: ABI1, truncated, D143A, DHFR fusion (Arabidopsis thaliana)
# Technique: DHFR PCA, deep sequencing
# Matrix: yeast
# Setting: methotrexate growth selection, single substitutions
# Added: (+)-ABA 710 µM
# Baseline: wild-type fitted maximum
# Direction: higher = stronger binding
# Starting sequence: PYL1, truncated, DHFR fusion (Arabidopsis thaliana); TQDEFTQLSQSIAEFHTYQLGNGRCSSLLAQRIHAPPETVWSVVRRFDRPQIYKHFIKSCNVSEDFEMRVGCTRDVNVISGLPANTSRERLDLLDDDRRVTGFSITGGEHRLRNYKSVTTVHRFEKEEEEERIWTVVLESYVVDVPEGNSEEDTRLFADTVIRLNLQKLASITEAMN
Variant,relative binding score
S87N,-15.4%
S27L,1.86%
F15V,83.1%
R99H,112%
L82S,60%
L29K,88.2%
N165L,3.37%
Y115N,6.46%
T1V,104%
A170W,54.2%
R155N,82.1%
V118A,90.2%
T135P,15.5%
G107Q,99.5%
Y18G,94.3%

# For quick reference, copied from above (block 3):
Sequence,lacZ reporter activity
B7 (RNF111 RING domain),0
B5 (MKRN1 RING domain),0
B1 (RC3H1 RING domain),0
B8 (TRAF5 RING domain),0
B6 (DTX4 RING domain),0
ASLPTSEEDLCPICYAHPISAVFQPCGHKSCKACINQHLMNNKDCFFCKTTIVSVEDWE (RNF123 RING domain (UniProt Q5XPI4)),0
B3 (TRIM24 RING domain),0
B2 (TRIML1 RING domain),0
B4 (RNF38 RING domain),0
MPIRALCTICSDFFDHSRDVAAIHCGHTFHLQCLIQWFETAPSRTCPQCRIQVGKRTIIN (TRAIP RING domain (UniProt Q9BWF2)),0
DHGAVGQEMCCPICCSEYVKGEVATELPCHHYFHKPCVSIWLQKSGTCPVCRCMFPPPL (PJA1 RING domain (UniProt Q8NG27)),0
GAAPGPEAAECLVCSELALLVLFSPCQHRTVCEECARRMKKCIRCQVVVSKKLRPD (MIB2 RING domain (UniProt Q96AX9)),0
